Assay results of several laboratories.
Compare with care: the assays were run in different laboratories. Several values in a cell are separate wells, animals, samples, runs or records. ± marks the error that the study gave.
Nuclear receptor subfamily 2 group C member 2 ligand-binding domain: Nuclear receptor subfamily 2 group C member 2, ligand-binding domain (Homo sapiens, UniProt P49116)
XPO1: Exportin-1 (XPO1, Homo sapiens, UniProt O14980)
ATRX F284Y/K251R: Transcriptional regulator ATRX (ATRX, Homo sapiens, UniProt P46100, F284Y/K251R)

C[S+](CC[C@H](N)C(=O)[O-])C[C@H]1O[C@@H](n2cnc3c(N)ncnc32)[C@H](O)[C@@H]1O (some centres unmarked)
apparent Vmax (Histone-lysine N-methyltransferase 2C (KMT2C, Homo sapiens, UniProt Q8NEZ4); substrate, enzyme-coupled methylation; together with: H3 peptide 25 µM): 0.2 ± 0.07 µM/min

O=C(O)C1CCCNC1 (centres unmarked)
fraction bound (Sodium- and chloride-dependent taurine transporter (SLC6A6, Homo sapiens, UniProt P31641, Y138A); binding, microscale thermophoresis; 40.3 nM, fitted curve; higher = more binding): 0.00199

Cc1n[nH]c2ccc(-c3cc(OC[C@@H](N)Cc4ccccc4)cnc3-c3ccoc3)cc12
log2 fold change (Serine/threonine-protein kinase CBK1 (CBK1, Candida albicans, UniProt Q5AP53); kinase binding, competitor, MIB/MS competition, refers to: CBK1; Candida albicans cell lysate; 10 µM; reference: DMSO): -0.759

CC(C)NC[C@H](O)COc1ccc(CCOCC2CC2)cc1.Cl
koff (Nuclear receptor subfamily 2 group C member 2 ligand-binding domain; SPR imaging; 600 nM): 1.24e-07 s⁻¹

O=C(/C=C\n1cnc(-c2cc(C(F)(F)F)cc(C(F)(F)F)c2)n1)NNc1cnccn1
cells with nuclear reporter (XPO1; nuclear export, high content imaging; HeLa Kyoto reporter; 0.32 µM, 2 h): 55% and 54.4%

N#Cc1cc(Cn2cncc2CN2CCN(c3cccc(OC(F)(F)F)c3)C(=O)C2)ccc1F
IC50 (Cryptococcus neoformans farnesyltransferase; enzyme activity, inhibitor, fluorescence; together with: 1 µM FPP, 0.5 µM dansylated peptide): 550 ± 30 nM

Nc1nc2c(ncn2[C@@H]2O[C@H](COP(=O)(O)O)[C@@H](O)[C@H]2O)c(=O)[nH]1
Km (GUK1 (Homo sapiens, UniProt Q16774); substrate, NADH-coupled; KCl 10 mM, together with: ATP 2.5 mM): 54.3 µM

CCCC[C@H]1CN(c2ccccc2)C(=O)CN1Cc1cncn1Cc1ccc(Br)cc1
IC50 (Cryptococcus neoformans farnesyltransferase; enzyme activity, inhibitor, fluorescence; together with: 1 µM FPP, 0.5 µM dansylated peptide): 920 ± 510 nM

COc1cc(-c2cncc3c2CN(C)Cc2cc(N4CCNCC4)ccc2-3)cc(OC)c1OC
remaining activity (Testis-specific serine/threonine-protein kinase 1 (TSSK1B, Homo sapiens, UniProt Q9BXA7); kinase activity; 1 µM, human enzyme, together with: ATP 10 µM; reference: DMSO control): 107%

C=CC(=O)N1CCC(COCC(=O)N2CCN(c3nc(-c4cnc(N)nc4C(F)F)nc(N4CCOC[C@@H]4C)n3)CC2)CC1
remaining binding (Receptor tyrosine-protein kinase erbB-3 (ERBB3, Homo sapiens, UniProt P21860); KINOMEscan; 1 µM): 100%

C[C@]12CCC(=O)C=C1CC[C@@H]1[C@@H]2[C@@H](O)C[C@@]2(C)[C@H]1CC[C@]2(O)C(=O)CO
koff (Nuclear receptor subfamily 2 group C member 2 ligand-binding domain; SPR imaging; 600 nM): 6.58e-05 s⁻¹

CC(C)C[C@@H]1NC(=O)[C@H](C(C)C)NC(=O)CNC(=O)[C@H](CC(N)=O)NC(=O)[C@@H]2CCCN2C(=O)[C@H](Cc2ccc(O)cc2)NC(=O)[C@H](CCCNC(=N)N)NC(=O)[C@H](Cc2ccccc2)NC(=O)[C@@H](NC(=O)[C@H](CCCCN)NC(=O)[C@@H]2CCCN2C(=O)[C@H](C)NC(=O)[C@H](C)NC(=O)[C@@H](N)Cc2ccc(O)cc2)CSSC[C@@H](C(=O)N[C@H](C(N)=O)[C@@H](C)O)NC(=O)[C@H](C)NC1=O
-ΔG (Alpha-2-HS-glycoprotein, asialo (AHSG, Bos taurus, UniProt P12763); binding, isothermal titration calorimetry; pH 7.0, 25 °C, together with: asialofetuin): 5.75 kcal/mol

COc1ccc(CCc2nc3cc(-c4c(C)noc4C)ccc3n2C[C@H](C)N2CCOCC2)cc1Cl
viability (OCI-Ly1; 1 µM, 120 h): 70.7%

Oc1ccc(/C=C/c2cc(O)cc(O)c2)cc1
binding stoichiometry (O-methyltransferase (Sorghum bicolor, UniProt A0A1B6PFV1); ITC; concentration not given, together with: ADE+): 0.62 ± 0.005

C[C@H](N)C(=O)N[C@@H](CCCNC(=N)N)C(=O)N[C@H](C(=O)N[C@@H](CCCCN(C)C)C(=O)N[C@@H](CCC(N)=O)C(=O)N[C@H](C(=O)N[C@@H](C)C(=O)N[C@@H](CCCNC(=N)N)C(=O)N[C@@H](CCCCN)C(=O)N[C@@H](CO)C(=O)N[C@H](C(=O)NCC(=O)NCC(=O)N[C@@H](CCCCN)C(=O)N[C@@H](C)C(=O)N[C@@H](Cc1ccc(O)cc1)C(=O)O)[C@@H](C)O)[C@@H](C)O)[C@@H](C)O
binding free energy (ATRX F284Y/K251R; isothermal titration calorimetry; pH 7.5, 25.0 °C): -5.71 kcal/mol

N[C@@H](Cc1ccccc1)C(=O)O
-TΔS (PAL1 (Petroselinum crispum, UniProt P24481, Y110F); binding, ITC): 31.2 kcal/mol

Nc1ncnc2c1ncn2[C@@H]1O[C@H](COP(=O)(O)CP(=O)(O)OP(=O)(O)O)[C@@H](O)[C@H]1O
calcium influx (P2X purinoceptor 1 (P2RX1, Homo sapiens, UniProt P51575, K136W); calcium influx; 10 µM; reference: ionomycin response): 100% and 98.4% and 95.1%

CC[C@H](C)[C@@H]1NC(=O)[C@H](CCCNC(=N)N)NC(=O)[C@@H]2CCCN2C(=O)[C@H](Cc2ccccc2)NC(=O)[C@H]([C@@H](C)O)NC(=O)CNC(=O)[C@H](CC(C)C)NC(=O)[C@@H]2CCCN2C(=O)[C@H]([C@@H](C)O)NC(=O)[C@H](Cc2c[nH]c3ccccc23)NC(=O)[C@H](Cc2ccc(O)cc2)NC(=O)[C@H]([C@@H](C)CC)NC(=O)[C@H]([C@@H](C)O)NC(=O)[C@H]([C@@H](C)O)NC(=O)[C@@H](Cc2ccc(O)cc2)NC(=O)CSC[C@@H](C(N)=O)NC(=O)[C@H](CCCNC(=N)N)NC1=O
ΔH (VPS35/VPS29 (Homo sapiens, UniProt Q96QK1+Q9UBQ0); binding, isothermal titration calorimetry; 25 °C): -11.2 ± 1 kcal/mol

CCN(CCO)CCCC(C)Nc1ccnc2cc(Cl)ccc12 (centres unmarked)
activation slope factor (Sodium channel protein type 5 subunit alpha (SCN5A, Homo sapiens, UniProt Q14524); sodium current, whole-cell patch clamp; 100 µM, without ATX-II): 2.09 mV/e-fold and 3.68 mV/e-fold and 5.23 mV/e-fold

CC[S+]([O-])c1nc(-c2ccccc2)cc(C(F)(F)F)n1 (centres unmarked)
cells with nuclear reporter (XPO1; nuclear export, high content imaging; HeLa Kyoto reporter; 0.0158 µM, 2 h): 1.62% and 0.99% and 4.49%

O=C1NC(=O)C2(CCc3ccccc32)N1 (centres unmarked)
IC50 ratio (Gamma-aminobutyric acid receptor subunit alpha-3/beta-3, with gamma-2 subunit (Homo sapiens, UniProt P28472+P34903); anaesthetic-induced desensitisation; reference: alpha1beta3gamma2 over alpha3beta3gamma2): 200 fold

Cc1cccc(N2CC(C(=O)O)CC2=O)c1 (centres unmarked)
fold enrichment (Coatomer subunit beta', WD repeat domain (Homo sapiens, UniProt P35606); binding, affinity selection mass spectrometry; reference: other proteins in batch): 1.06

OC[C@H]1OC(O)[C@H](O)[C@@H](O)[C@@H]1O (some centres unmarked)
koff (Nuclear receptor subfamily 2 group C member 2 ligand-binding domain; SPR imaging; 600 nM): 1.93e-07 s⁻¹

O=C1OC(c2ccccc2)=N/C1=C\c1ccccc1O
Km (Pancreatic alpha-amylase (Homo sapiens, UniProt P04746); inhibitor, Lineweaver-Burk; 100 ppm, together with: starch substrate): 1350 µM

O=C(Nc1ccc(CN2CCOCC2)c(C(F)(F)F)c1)c1ccc(C#Cc2cccc3cnccc23)cn1
activity (Oxidized purine nucleoside triphosphate hydrolase (NUDT1, Homo sapiens, UniProt P36639); activator, refers to: endogenous MTH1; HCC1806 whole cell lysate; 20 µM): > 200%

Nc1ncnc2c1ncn2[C@@H]1O[C@H](COP(=O)(O)OP(=O)(O)OP(=O)(O)O)[C@@H](O)[C@H]1O
normalized current (P2X purinoceptor 7 (P2rx7, Rattus norvegicus, UniProt Q64663, R125A); ion current, agonist, two-electrode voltage clamp; Xenopus laevis oocytes; 500 µM; reference: highest concentration response): 0.898 and 0.882 and 0.971

CCCCc1oc2ccccc2c1C(=O)c1cc(I)c(OCCN(CC)CC)c(I)c1
koff (Nuclear receptor subfamily 2 group C member 2 ligand-binding domain; SPR imaging; 600 nM): 3.18e-07 s⁻¹

C[C@H](N)C(=O)N[C@@H](CCCNC(=N)N)C(=O)N[C@H](C(=O)N[C@@H](CCCCN)C(=O)N[C@@H](CCC(N)=O)C(=O)N[C@H](C(=O)N[C@@H](C)C(=O)N[C@@H](CCCNC(=N)N)C(=O)N[C@@H](C)C(=O)N[C@@H](CO)C(=O)O)[C@@H](C)O)[C@@H](C)O
binding free energy (ATRX F284Y/K251R; isothermal titration calorimetry; pH 7.5, 25.0 °C): -6.24 kcal/mol

CC1CCc2c(N3CCC(O)CC3)c(F)cc3c(=O)c(C(=O)O)cn1c23 (centres unmarked)
koff (Nuclear receptor subfamily 2 group C member 2 ligand-binding domain; SPR imaging; 600 nM): 2.94e-07 s⁻¹

Cc1ncccc1OC[C@H]1CN(CCN2CCc3ccccc32)CCO1
inhibition (5-hydroxytryptamine receptor 4 (HTR4, Homo sapiens, UniProt Q13639); radioligand binding; concentration not given): 20.3%

CC(=C/C(=O)O)/C=C/C=C(\C)C1C=C2C(C)(C)CCCC2(C)O1 (centres unmarked)
Pearson correlation coefficient (Rhodopsin (RHO, Homo sapiens, UniProt P08100, T17M); ER retention, immunostaining co-localization, refers to: opsin with calnexin; COS-7 transfected T17M; 1.00 µM): 0.71

CCc1cc2c(N3CCN(c4nncs4)CC3)ncnc2s1
viability (OCI-Ly1; 1 µM, 120 h): 118%

CCN1CCC[C@H]1CNC(=O)c1c(O)c(Cl)cc(Cl)c1OC
log2 fold change (Hydroxycarboxylic acid receptor 2 (HCAR2, Homo sapiens, UniProt Q8TDS4); β-arrestin recruitment, TANGO luminescence, refers to: GPR109A; concentration not given; reference: basal luminescence): 0.021

O=[N+]([O-])c1cc(C(F)(F)F)ccc1NCc1ccco1
ΔG (Endothelial PAS domain-containing protein 1, PAS-B domain (EPAS1, Homo sapiens, UniProt Q99814, N288A); binding, ITC, reverse mode): -8.29 ± 0.17 kcal/mol

Nc1ncnc2c1ncn2[C@@H]1O[C@H](COP(=O)(O)OP(=O)(O)O)[C@@H](O)[C@H]1O
-TΔS (Cell cycle histidine kinase CckA, CA domain (Caulobacter vibrioides, UniProt Q9X688); binding, ITC; 25 °C, together with: without c-di-GMP): 0.8 kcal/mol

[O-][S+]1CCCCS1 (centres unmarked)
alpha rate constant (Superoxide dismutase [Cu-Zn] (SOD1, Homo sapiens, UniProt P00441, G94A); two-compartment model; SOD1 G93A transgenic mice, whole blood; iv, 10 mg/kg): 0.0625 h⁻¹

Nc1nc2c(ncn2[C@@H]2O[C@H](COP(=O)(O)OP(=O)(O)O)[C@@H](O)[C@H]2O)c(=O)[nH]1
-TΔS (GUK1 (Homo sapiens, UniProt Q16774, S13A); binding, ITC): 1.32 kcal/mol

C#Cc1cccc(Oc2ccc(-c3nn([C@@H]4CCCN(C(=O)C=C)C4)c4ncnc(N)c34)cc2)c1
SILAC ratio (Peroxiredoxin-like 2A (Homo sapiens, UniProt Q9BRX8); ABPP-SILAC; 1 µM, 1 h; reference: DMSO): 20

Excerpt of the above:
CCCCc1oc2ccccc2c1C(=O)c1cc(I)c(OCCN(CC)CC)c(I)c1
koff (Nuclear receptor subfamily 2 group C member 2 ligand-binding domain; SPR imaging; 600 nM): 3.18e-07 s⁻¹

C[C@H](N)C(=O)N[C@@H](CCCNC(=N)N)C(=O)N[C@H](C(=O)N[C@@H](CCCCN)C(=O)N[C@@H](CCC(N)=O)C(=O)N[C@H](C(=O)N[C@@H](C)C(=O)N[C@@H](CCCNC(=N)N)C(=O)N[C@@H](C)C(=O)N[C@@H](CO)C(=O)O)[C@@H](C)O)[C@@H](C)O
binding free energy (ATRX F284Y/K251R; isothermal titration calorimetry; pH 7.5, 25.0 °C): -6.24 kcal/mol

CC1CCc2c(N3CCC(O)CC3)c(F)cc3c(=O)c(C(=O)O)cn1c23 (centres unmarked)
koff (Nuclear receptor subfamily 2 group C member 2 ligand-binding domain; SPR imaging; 600 nM): 2.94e-07 s⁻¹

Cc1ncccc1OC[C@H]1CN(CCN2CCc3ccccc32)CCO1
inhibition (5-hydroxytryptamine receptor 4 (HTR4, Homo sapiens, UniProt Q13639); radioligand binding; concentration not given): 20.3%

CC(=C/C(=O)O)/C=C/C=C(\C)C1C=C2C(C)(C)CCCC2(C)O1 (centres unmarked)
Pearson correlation coefficient (Rhodopsin (RHO, Homo sapiens, UniProt P08100, T17M); ER retention, immunostaining co-localization, refers to: opsin with calnexin; COS-7 transfected T17M; 1.00 µM): 0.71
